Experimental data from different studies.
Lines come from different studies, so protocols differ. Several values in a cell are separate wells, animals, samples, runs or records. ± gives the spread as reported.
Cell line: Caco-2

| SMILES | assay | system | conditions | how to read | endpoint | result |
| --- | --- | --- | --- | --- | --- | --- |
| CCNCC#CCNc1ccnc2cc(Cl)ccc12 | – | – | 10 µM, 90 min, pH 7.4 | apical to basolateral | apparent permeability | 14 ×10⁻⁶ cm/s |
| COC(=O)NC(C(=O)NN(Cc1ccc(Br)cc1)CC(O)(Cc1ccccc1)C(=O)NCc1ccccc1)C(C)(C)C (stereo not shown) | – | – | pH 7.4, 1% BSA in receiver | – | Papp A-to-B | 90.9 ± 0.4 ×10⁻⁶ cm/s |
| C#Cc1cccc(Nc2ncnc3cc(OC)c(OCCCN4CCOCC4)cc23)c1 | – | – | 10 µM, 90 min, 37 °C | – | Papp (B to A) | 22.91 ± 0.02 ×10⁻⁶ cm/s |
| COC(=O)NC(C(=O)NN(Cc1ccc(C=Cc2ccccc2)cc1)CC(O)(Cc1ccccc1)C(=O)NC1c2ccccc2CC1O)C(C)(C)C (stereo not shown) | – | – | pH 7.4, 1% BSA in receiver | – | Papp A-to-B | 8.3 ± 1.3 ×10⁻⁶ cm/s |
| COC(=O)c1ccc2c(c1)NC(=O)/C2=C(\Nc1ccc2c(c1)CCN2C(=O)CN1CCOCC1)c1ccccc1 | – | – | 2 µM, 120 min, 1% DMSO | – | efflux ratio | 2.64 |
| C=C(C)C(=O)Nc1ccc(-c2c(-c3ccc(Oc4nccc(C)n4)cc3)c3c(N)ncnc3n2C)cc1 | – | – | – | – | Papp A-B | 4.7 ×10⁻⁶ cm/s |
| CC1(C)CCN(Cc2ccc(C(=O)NC[C@]3(O)CCCN(c4cc(NCc5ccccc5)ncn4)C3)c(O)c2)CC1 | – | – | 10 µM, 90 min, apical to basolateral, 0.4 % DMSO | – | Papp | 11.8 ×10⁻⁶ cm/s and 12.4 ×10⁻⁶ cm/s |
| COCCNC(=O)C(NC(=O)C(O)(Cc1ccccc1)CN(Cc1ccc(Br)cc1)NC(=O)C(NC(=O)OC)C(C)(C)C)C(C)C (stereo not shown) | – | – | pH 7.4, 1% BSA in receiver | – | Papp B-to-A | 312 ± 89.7 ×10⁻⁶ cm/s |
| CC[C@H](C)[C@H](NC(=O)CN)C(=O)N[C@H](C(=O)N[C@@H](CC(N)=O)C(=O)N[C@H](C(=O)N[C@@H](CC(C)C)C(=O)N[C@@H](CCC(N)=O)C(=O)N[C@@H](CCCCN)C(=O)N[C@@H](Cc1ccc(O)cc1)C(=O)N[C@@H](Cc1ccc(O)cc1)C(=O)N[C@H]1CSSC[C@@H]2NC(=O)[C@H](CCCCN)NC(=O)[C@H](CCCNC(=N)N)NC(=O)CNC(=O)[C@H](CCCNC(=N)N)NC(=O)[C@H]([C@@H](C)O)NC(=O)[C@H](CO)NC(=O)[C@@H]3CSSC[C@H](NC(=O)[C@H](CCCNC(=N)N)NC(=O)CNC(=O)CNC(=O)[C@H](CCCNC(=N)N)NC(=O)[C@H](C(C)C)NC(=O)[C@H](CCCNC(=N)N)NC1=O)C(=O)N[C@@H](C)C(=O)N[C@@H](C(C)C)C(=O)N[C@@H](CC(C)C)C(=O)N[C@@H](CO)C(=O)N[C@@H](CSSC[C@@H](C(=O)N[C@@H](CCCNC(=N)N)C(=O)N[C@@H](CCCNC(=N)N)C(=O)N[C@@H](CCCCN)C(=O)N[C@@H](CCCCN)C(=O)O)NC2=O)C(=O)N[C@@H](CC(C)C)C(=O)N1CCC[C@H]1C(=O)N[C@@H](CCCCN)C(=O)N[C@@H](CCC(=O)O)C(=O)N[C@@H](CCC(=O)O)C(=O)N[C@@H](CCC(N)=O)C(=O)N[C@@H]([C@@H](C)CC)C(=O)NCC(=O)N[C@@H](CCCCN)C(=O)N3)[C@@H](C)O)[C@@H](C)CC | MTT | – | up to 25.0 µM, 48 and 72 h | – | viability reduction | ~25% |
| Cc1ncc([N+](=O)[O-])n1CCOCc1nnc(SCC(=O)c2ccc([N+](=O)[O-])cc2)o1 | cell growth or viability, MTT | – | 6 µM, 48 h | – | viability | 95.7% |
| COC(=O)NC(C(=O)NN(Cc1ccc(Br)cc1)CC(O)(Cc1ccccc1)C(=O)Nc1cccc(O)c1C)C(C)(C)C (stereo not shown) | – | – | pH 7.4 | baseline: B-to-A over A-to-B | efflux ratio | 1 |
| CCC(CC)OC1C=C(C(=O)OC(OC(=O)C(N)C(C)C)C(C)C)CC(NC(=N)N)C1NC(C)=O (mixture of isomers) | – | intracellular | concentration not given, time not given, after apical transport | – | hydrolysis to parent drug | 49 ± 12% |
| COC(=O)NC(C(=O)NN(Cc1ccc(Br)cc1)CC(O)(Cc1ccccc1)C(=O)NC1CCOC1)C(C)(C)C (stereo not shown) | – | – | pH 7.4 | baseline: B-to-A over A-to-B | efflux ratio | 5.5 |
| Cc1ncc([N+](=O)[O-])n1CCOCc1nnc(SCC(=O)c2ccc(F)cc2)o1 | cell growth or viability, MTT | – | 6 µM, 48 h | – | viability | 112% |
| COc1cc(-c2cncc(-c3ccc(N4CCN(C)CC4)cc3)c2C)cc(OC)c1OC | – | – | 5 µM, 120 min, pH 7.4 | – | Papp A-B | 16.6 ×10⁻⁶ cm/s |
| COC(=O)NC(C(=O)NN(Cc1ccc(-c2cc3ccccc3s2)cc1)CC(O)(Cc1ccccc1)C(=O)NC1c2ccccc2CC1O)C(C)(C)C (stereo not shown) | – | – | pH 7.4, 1% BSA in receiver | – | Papp A-to-B | 1.5 ± 0.1 ×10⁻⁶ cm/s |
| Cc1ncc([N+](=O)[O-])n1CCOCc1nnc(SCC(=O)c2ccc(O)cc2)o1 | cell growth or viability, MTT | – | 6 µM, 48 h | – | viability | 146% |
| CCN(CC)CC#CCNc1ccnc2cc(Cl)ccc12 | – | – | 10 µM, 90 min, pH 7.4 | basolateral to apical | apparent permeability | 11 ×10⁻⁶ cm/s |
| O=C1CCCCC(=O)Nc2ccc3ncc(cc3c2)C(=O)NCc2cccc(c2)CNC(=O)c2cnc3ccc(cc3c2)N1 | – | – | pH 6.5, intrinsic permeability, together with: transporter inhibitor cocktail | – | Papp A-B | 0.4 ×10⁻⁶ cm/s |
| CNC(=O)C(NC(=O)C(O)(Cc1ccccc1)CN(Cc1ccc(Br)cc1)NC(=O)C(NC(=O)OC)C(C)(C)C)C(C)(C)C (stereo not shown) | – | – | pH 7.4, 1% BSA in receiver | – | Papp B-to-A | 70 ± 12.3 ×10⁻⁶ cm/s |
| CCCCn1cc(C(=O)O)c(=O)c2cc(F)c3[nH]nnc3c21 | cell growth or viability, SRB | – | – | – | IC50 | 441 µM |
| COC(=O)NC(C(=O)NN(Cc1ccc(Br)cc1)CC(O)(Cc1ccccc1)C(=O)NC1c2ccccc2CC1O)C(C)(C)C (stereo not shown) | – | – | pH 7.4, 1% BSA in receiver | – | Papp B-to-A | 246 ± 3.9 ×10⁻⁶ cm/s |
| CCCCn1cc(C(=O)O)c(=O)c2cc(F)c(N)c([N+](=O)[O-])c21 | cell growth or viability, SRB | – | – | – | IC50 | 468 µM |
| C[n+]1cc2cc3cc(ccc31)NC(=O)CCCCC(=O)Nc1ccc3c(c1)cc(c[n+]3C)C(=O)Nc1ccc3[nH]cc(c3c1)CCNC2=O | – | – | pH 6.5, intrinsic permeability, together with: transporter inhibitor cocktail | – | Papp A-B | 1.4 ×10⁻⁶ cm/s |
| NC1=N[N+](=Cc2c3ccccc3cc3ccccc23)[Ga-3]23([S]1)([S]C(N)=N[N+]2=Cc1c2ccccc2cc2ccccc12)[S]C(N)=N[N+]3=Cc1c2ccccc2cc2ccccc12 | – | – | 72 h | baseline: IC50 CCD-18Co over Caco-2 | selectivity ratio | 12 and 11.8 |

Excerpt of the above:
| SMILES | assay | system | conditions | how to read | endpoint | result |
| --- | --- | --- | --- | --- | --- | --- |
| CCNCC#CCNc1ccnc2cc(Cl)ccc12 | – | – | 10 µM, 90 min, pH 7.4 | apical to basolateral | apparent permeability | 14 ×10⁻⁶ cm/s |
| COC(=O)NC(C(=O)NN(Cc1ccc(Br)cc1)CC(O)(Cc1ccccc1)C(=O)NCc1ccccc1)C(C)(C)C (stereo not shown) | – | – | pH 7.4, 1% BSA in receiver | – | Papp A-to-B | 90.9 ± 0.4 ×10⁻⁶ cm/s |
| C#Cc1cccc(Nc2ncnc3cc(OC)c(OCCCN4CCOCC4)cc23)c1 | – | – | 10 µM, 90 min, 37 °C | – | Papp (B to A) | 22.91 ± 0.02 ×10⁻⁶ cm/s |
